Measurements gathered from unrelated publications.
SGK1: Serine/threonine-protein kinase Sgk1 (SGK1, Homo sapiens, UniProt O00141)
Sequence of UniProt O00141 (whole entry, unmodified, looked up): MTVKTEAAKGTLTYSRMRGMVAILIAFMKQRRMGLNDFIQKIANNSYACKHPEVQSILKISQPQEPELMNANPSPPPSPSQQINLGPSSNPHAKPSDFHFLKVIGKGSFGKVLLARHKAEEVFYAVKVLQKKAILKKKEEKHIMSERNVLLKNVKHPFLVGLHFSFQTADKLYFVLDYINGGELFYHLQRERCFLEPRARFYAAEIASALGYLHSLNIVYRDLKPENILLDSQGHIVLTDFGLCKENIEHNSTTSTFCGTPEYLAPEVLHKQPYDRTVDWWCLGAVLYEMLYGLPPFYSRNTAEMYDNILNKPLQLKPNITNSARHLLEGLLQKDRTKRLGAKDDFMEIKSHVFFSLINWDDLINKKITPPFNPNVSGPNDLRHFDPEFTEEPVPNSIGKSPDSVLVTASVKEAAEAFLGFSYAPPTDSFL

NC(=O)C[C@H]1CCc2sc3ncnc(O[C@H]4CC[C@H](N5CCOCC5)CC4)c3c21
inhibition (SGK1; enzyme activity, inhibitor; 10 µM): 2%

O=c1c(-c2ccc(Cl)c(CN3CCOCC3)c2)coc2cc(O)ccc12
remaining activity (SGK1; enzyme activity, inhibitor; 1 µM): 113%

CNC(=O)C1CCN(c2cc(C)c(F)cc2NC(=O)c2ccc(-c3cc(O)ccc3C)c(C)c2)CC1
remaining binding (SGK1; binding, competition with immobilised ligand; 1 µM): 77%

COc1ccc(O)cc1-c1c[nH]c2ncc(-c3cncc(C(=O)N(C)C)c3)cc12
inhibition (SGK1; binding, competition with immobilised ligand; 0.2 µM): -0.08%

Cc1cnc2nc1Nc1cccc(c1)COC/C=C/COCc1cc(ccc1OCCN1CCOCC1)N2
remaining binding (SGK1; binding, competition with immobilised ligand; 0.1 µM): 83%

Cc1cccc(O[C@H]2CCC[C@@H](C(C)CNCc3ccncc3)C2)c1 (relative stereo)
inhibition (SGK1; enzyme activity, inhibitor; 1 µM): -3%

COc1cc(Nc2nccc(-c3cnn4nc(OC)ccc34)n2)cc(C(F)(F)F)c1
remaining binding (SGK1; binding, competition with immobilised ligand; 1 µM): 92%

COc1c(OCCCN2CCOCC2)ccc2c1N=C(NC(=O)c1cnc(N)nc1)N1CCN=C21
remaining activity (SGK1; kinase activity, inhibitor; 1 µM; baseline: untreated control): 98%

COc1ccc(NC(=O)Nc2ccc3c(c2)C(=O)N(C(C)CO)CC(C)C(CN(C)Cc2ccc4c(c2)OCO4)O3)cc1 (centres unmarked)
remaining activity (SGK1; kinase activity, KinaseProfiler; 0.03 µM, species human; baseline: control): 99%

CCn1cc(C(=O)O)c(=O)c2c(N)c(F)c(NC3CCCCC3)cc21
inhibition (SGK1; kinase activity; 0.1 µM, added: ATP at Km): 1.6%

CNC(=O)C[C@H](Cc1ccc(C#N)cc1)NC(=O)c1cc(-c2ccc(CN[C@H](C)c3ccc(C)cc3)o2)ccc1Cl
activity vs control (SGK1; enzyme activity, inhibitor; 1 µM): 104%

O=C=[N][Ru-4]123([n]4c5ccc(O)cc5c5c6c(c7cc(F)c[n+]1c7c54)C(=O)NC6=O)[S+]1CC[S+]2CC[S+]3CC1 (centres unmarked)
remaining activity (SGK1; enzyme activity; 100 nM, human enzyme, added: 10 µM ATP; baseline: untreated): 82%

CC(C)=CC1OC(C)(C)C2C=C3C(=O)C(Cl)=CC(O)C3C3C(O)C4OC4C(=O)C132 (centres unmarked)
remaining binding (SGK1; cell-free assay, competition with immobilised ligand; 10 µM): 67%

Cc1ccc(C)c(-c2ccc3nc(NC(=O)C4CCCCC4)nn3c2)c1
remaining activity (Serine/threonine-protein kinase Sgk1 (SGK1, Homo sapiens, UniProt O00141, S422D); enzyme activity, Dundee kinase panel; 10 µM): 96%
